# Measured values of several laboratories.
# Each line is one published result; not all experiments were run side by side. ± gives the spread as reported.
SMILES,test,test system,setting,AUC(0-inf)
CN(CC#N)C(=O)C[C@H](Nc1nc2ccccc2[nH]1)c1cccc(C(F)(F)F)c1,,human,"intravenous infusion, 2 mg/kg, 10 mg/mL formulation",16100 ± 8600 ng·h/mL
CN(C)C(=O)c1cc2cnc(Nc3ccc(N4CCNCC4)cn3)nc2n1C1CCCC1,,"human, mild renal impairment, plasma","oral, 400 mg, geometric mean",6650 ng·h/mL
C=CC(=O)NC1CCN(c2ncc3ncnc(Nc4ccc(Oc5ccc6c(c5)ncn6C)c(C)c4)c3n2)CC1,,"human, male, plasma","oral, 240 mg, fasted, adjusted geometric mean",47.6 µM·h
CC(C)[C@@H]1CC[C@@H](C)C[C@H]1OC(=O)O[C@@H](C)OC(=O)[C@H]1[C@@H]2C[C@H](F)[C@@](N)(C(=O)O)[C@@H]21,,"human, plasma","oral, 10 mg single dose, fed",22.6 ng·h/mL
CN1C(=O)[C@@H](NC(=O)c2nnc(Cc3ccccc3)[nH]2)COc2cccnc21,,"healthy human, fasted, plasma","oral, 800 mg single dose, geometric mean",87300 ng·h/mL
Cn1cncc1[C@@](N)(c1ccc(Cl)cc1)c1ccc2c(c1)c(-c1cccc(Cl)c1)cc(=O)n2C,,"human, with dose-limiting toxicity, plasma","oral, dose not given, median",5310 ng·h/mL
CCN1CCN(Cc2ccc(Nc3ncc(F)c(-c4cc(F)c5nc(C)n(C(C)C)c5c4)n3)nc2)CC1,,"fasted healthy human subjects, plasma","oral, 200 mg, capsule",3680 ng·h/mL
Cc1cc(Nc2cc3ncccc3c(N[C@@H]3C[C@H]4CC[C@@H](C3)N4CCC#N)n2)n[nH]1,,"human, plasma","30 mg single dose, mean",5.2 ng·h/mL
Cn1c(=O)oc2ccc(-c3ccc(C[C@@H](C#N)NC(=O)[C@@H]4CNCCCO4)cc3)cc21,,"human, mild renal impairment, plasma","oral, 25 mg single dose, geometric least squares mean",3430 ng·h/mL
Nc1ccn([C@@H]2O[C@H](CO)[C@@H](O)C2(F)F)c(=O)n1,HPLC-UV,"human, plasma","intravenous, 800 mg/m^2, mean, before paricalcitol",17500 ng·h/mL
C[C@H](O)c1cc(C(=O)N[C@@H](C)Cn2ccc(-c3ccc(C#N)c(Cl)c3)n2)n[nH]1,,"healthy male human, plasma","intravenous infusion, 100 µg 14C-labelled, 15 min infusion, microtracer, geometric mean",10300 h·pg eq/mL
N[C@](CO)(CCc1ccc(Sc2cccc(OCc3ccccc3)c2)cc1Cl)COP(=O)(O)O,,"human, blood","3 mg MOC, together with: cyclosporin 100 mg b.i.d.",178 ng·h/mL
Cc1cc(C)c(CNC(=O)c2cc(Cl)c3c(c2C)O[C@@](C)([C@H]2CC[C@H](N(C)C)CC2)O3)c(=O)[nH]1,geometric LS mean,"healthy male humans, plasma","oral, dose not given, together with: fluconazole",967 ng·h/mL
C[C@@H](Oc1ccc(S(C)(=O)=O)cc1C(=O)N1C[C@@H]2C[C@]2(c2cc(C(F)(F)F)on2)C1)C(F)(F)F,,"healthy young humans, plasma","oral, 75 mg single dose",18.4 µM·h
CNC(=O)c1c(C)oc2cc(Oc3ncnc4cc(OC)c(OC)cc34)ccc12,,"healthy human subjects, plasma","oral, 5 mg, arithmetic mean, together with: dabigatran etexilate 150 mg",5310 ng·h/mL
C=CC(=O)N(C)CCOc1c(N)ncnc1-c1cc(F)cc(NC(=O)c2ccc(C3CC3)cc2F)c1C,,"human, whole blood","oral, 60 mg, single ascending dose",245 ng·h/mL
C[C@H]1CN(C(=O)CC#N)[C@]12CCN(c1ncnc3[nH]ccc13)C2,,"healthy human, plasma","oral, 6 mg single, mean",222 ng·h/mL
N[C@@H]1c2cccnc2[C@H](OC(=O)N2CCC(n3c(=O)[nH]c4ncccc43)CC2)CC[C@H]1c1cccc(F)c1F,,"human, plasma","oral, 75 mg single dose, alone, arithmetic mean, itraconazole DDI study",4860 ng·h/mL
C#C[C@]1(CO)O[C@@H](n2cnc3c(N)nc(F)nc32)C[C@@H]1O,,"human, plasma","oral, 100 mg, single dose, geometric mean",11.7 µM·h
Cn1cncc1[C@@](N)(c1ccc(Cl)cc1)c1ccc2c(c1)c(-c1cccc(Cl)c1)cc(=O)n2C,,"healthy human subjects, plasma","oral, 50 mg, fed (high-fat meal)",523 ng·h/mL
CCNCCCNC/C=C\CNCCCNCC,LC-MS/MS,"human cancer patients, plasma","intravenous infusion 60 min, 200 mg, median, cycle 1",1330 ng·h/mL
CC1=C(c2cccc(O)c2)[C@H](c2ccc(OCCN3CC(CF)C3)cc2)Oc2ccc(O)cc21,,"human, plasma","oral, 1000 mg single dose, geometric mean",2270 ng·h/mL
